Measured values of several laboratories.
Each line is one published result; not all experiments were run side by side. Values joined by “and” are separate records of one study, mostly repeats; a detail may differ. ± gives the spread as reported.

C[C@@H]1OC(=O)[C@H](Cc2ccccc2)[C@H]1O  DT50 water (Swiss Lake sand sediment, aerobic dark; 20 °C): 34.8 days
Cn1cncc1-c1c(F)cncc1NC(=O)c1c(N)nn2cc(F)cnc12  grade ≥3 adverse events (patients, advanced solid tumours; oral, 180 mg once daily, 2 weeks on 1 week off; baseline: patients): 0%
O=C1NCCc2nc(OCc3cccc(F)c3)ccc21  Irwin test score (item: Writhing; Sprague-Dawley rat male; oral, 100 mg/kg, 30 min; direction not given): 0
O=C(Nc1cnccc1Cl)N1CCN(Cc2ccc3c(c2)OC(F)(F)O3)CC1  renal clearance (elderly men and women, urine; oral, 100 mg once daily, day 10): 0.0114 L/h
CCO[C@H]1CCN(Cc2c(OC)cc(C)c3[nH]ccc23)[C@H](c2ccc(C(=O)O)cc2)C1  incidence impaired fasting glucose (PNH patients, active haemolysis; oral, 50 mg, 4 weeks, treatment): 0%
CN1CCC[C@H](CN2c3ccccc3Sc3ccccc32)C1.Cl  AUC(0-t) (Wistar rat female, lung; oral, 16 mg/kg): 243 µg·h/mL
CCOc1c([C@H](C)n2nc(C)c3c(N)ncnc32)cc(Cl)c(F)c1[C@@H]1CNC(=O)C1  observations ΔQTcF >30 ≤60 ms (ECG; previously treated B-cell malignancy patients; oral, 45 mg once daily, baseline QTcF ≤450 ms): 0%
CCc1cc(C(=O)NC)c2nccc(N3CCc4c(cc(Cn5ccnc5)cc4-c4cn(C)nc4C(F)(F)F)C3=O)c2c1  body weight change (Sprague Dawley rat; oral, 100 mg/kg once daily, day 3, 7-day toxicology study; baseline: day 1): 5.2%
COC[C@@H](CC(C)C)NC(=O)c1ccc(C)c(C)c1  AUC(0-t) ratio (Sprague-Dawley rats, plasma; oral, 10 mg/kg; baseline: female over male): 1.37
O=C(Nc1nc2cccc(-c3ccc(CN4CCS(=O)(=O)CC4)cc3)n2n1)C1CC1  treatment-emergent adverse events (item: hypotension; human rheumatoid arthritis patients; oral, 75 mg once daily, 4 weeks, regardless of relatedness): 0%
COc1ccc(C[C@@H](C)[C@@H](C)Cc2ccc(OC)c(OC)c2)cc1OC  AUC(0-t) (beagle dog, male, plasma; oral, 100 mg/kg/day, day 1): 14 ± 5.52 µg·h/mL
Nc1ncc(-c2ccncc2)nc1Nc1ccc2[nH]ccc2c1  tmax (C57BL mice, plasma; oral, 30 mg/kg): 30 min
NC1(C(=O)N[C@@H](CCO)c2ccc(Cl)cc2)CCN(c2nc[nH]c3nccc2-3)CC1  Tmax (LC-MS/MS, non-compartmental; human patients, plasma; 160/320 mg cohort, cycle 2, geometric mean, together with: enzalutamide): 150 min
C=CC(=O)N1C[C@H](n2c(C#CC3CC3)c(C(=O)N[C@H](C)c3ccccc3)c3c(N)ncnc32)C[C@@H]1C  apparent half-life (BALB/cAJcl-nu/nu male mouse, plasma; oral, 12.5 mg/kg, repeated dosing 7 days): 41.4 min
Cc1ccc(Sc2ccccc2N2CCNCC2)c(C)c1  participants with TEAE (item: blood uric acid increased; healthy adult men; oral, 5 mg daily, 12 days): 16.7%
CC(C)(C)OC[C@@H]1C(=O)NCCN1C(=O)C[C@H](N)Cc1cc(F)c(F)cc1F  number of TEAEs (item: infections and infestations; healthy Korean men; oral, dose not given): 2
Cn1cc(Nc2nccc(-c3ccc4c(c3)CN(C3COC3)CC[C@H]4NC(=O)c3cn(C(C)(C)C)nn3)n2)cn1  plasmablast count change (human, whole blood; 150 mg twice daily, day 14; baseline: pre-dose baseline): -53.6%
COc1ccc(CNc2nc(-c3ccc(C(=O)O)cc3)nc3c2c2ccccc2n3C)cc1Cl  body weight (NSG mice; dose not given, day 7 of treatment): 22.8 g and 22.3 g and 23.9 g and 21.5 g

Some of these lines once more:
NC1(C(=O)N[C@@H](CCO)c2ccc(Cl)cc2)CCN(c2nc[nH]c3nccc2-3)CC1  Tmax (LC-MS/MS, non-compartmental; human patients, plasma; 160/320 mg cohort, cycle 2, geometric mean, together with: enzalutamide): 150 min
Cn1cncc1-c1c(F)cncc1NC(=O)c1c(N)nn2cc(F)cnc12  grade ≥3 adverse events (patients, advanced solid tumours; oral, 180 mg once daily, 2 weeks on 1 week off; baseline: patients): 0%
